Measured values gathered from unrelated publications.
A part holds a random share of what one study measured. Changes are numbered by the printed parent chain.

Series 1 — method: RNA Bind-n-Seq; molecule type: RNA; sample: in vitro; tested at: 365 nM; relative to: no-protein control; direction: higher = stronger binding
Target: RNA binding protein fox-1 homolog 2, RRM domain, GST-SBP tag (RBFOX2, Homo sapiens, UniProt O43251-10, residues 100-194)
Notes: natural RNA segment, single round, ends assumed
Residues (chain): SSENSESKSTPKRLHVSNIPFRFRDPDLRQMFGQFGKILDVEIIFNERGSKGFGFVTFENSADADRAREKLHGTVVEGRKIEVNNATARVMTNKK
Sequence | RBNS enrichment (R)
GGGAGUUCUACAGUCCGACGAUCUUUAACUUGGCGAGAUGUGUCUCUCAAUCCUGUGGCUUUGGUGAGAGAGUGUGCAGAGAGCAAUGAUAGCAAAUAAUGUACGAAUGUUUUUUGCAUUCAAAGGACAUCCAUGGAAUUCUCGGGUGCCAA | 0.695
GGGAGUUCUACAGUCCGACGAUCGAACAAAUGUGGCCUUCUCAUGCCAUUUCCAGUAAUGACGCAGAGGAGGACGUGUUGCCUCAGAACAUGGGGACUUCCUAGAGGUCUGCUGAGCCCACAGAAAGAGCCAGUGGAAUUCUCGGGUGCCAA | 0.353
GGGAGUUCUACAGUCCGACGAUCAACUUGGAUCUCAGGUACCUCAAUUUUUCCCCCAAUUUCUGGCUACUACUAAAAGCCAGAAAGAACAGAACAGUGGCCUCAGGAGAUCUGAGUUUGAAUCCUUGCUCUCUUGGAAUUCUCGGGUGCCAA | 0.249
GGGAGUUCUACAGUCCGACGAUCCCUGCCCACAGGGCCACCUGUUGGUUUGAGAGCGUGUUCGUGUUCUCUUGCCCUCCCUGCCUAAGAGCUACUGGGAUCACGUUAGCGGGCAUUUAGGCUUUGAUGAGAGGUGGAAUUCUCGGGUGCCAA | 0.304
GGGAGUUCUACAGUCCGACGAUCGUAGACUGCGGGGUCCUAGCCUCUUCCUCCGACUUUGCUUUUGCAGGUCUUUCACUGCAGAUGGGGCUGCUGUGGGAGUUGGGACUUGUUUGUUUUCCUUUUUGAGUUCAUGGAAUUCUCGGGUGCCAA | 1.62
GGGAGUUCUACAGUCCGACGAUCAGUUUUCUUCAUUGUGCACACAGGACAAAUCUGAUCUCUUUGGGAAAAAAUAGAAAUAAAACAAUCUCCCUCCAUAAUGUGAGCAAUAUUACCUCGUGCAUUGUAUAAUUUGGAAUUCUCGGGUGCCAA | 2.07
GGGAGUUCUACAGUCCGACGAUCUAUAAUUGGGUAGUUUUGUUAAUAUUUUUUUAUCUUGUCCUUGAUAUUCCAAAAGUUACAGGAUAGAUGUAAAUCAAUAAAGUCAUUUGGCUGUGUUUUAGACAGCUCCAUGGAAUUCUCGGGUGCCAA | 0.56
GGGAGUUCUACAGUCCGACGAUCGCAUCUUGGUUCCUUUACACAGCUUGAAGGGGCAGCCUGCACAGACUGAAAUAUCUUGACAGUUGAGAUGUGGUCAGGUGAAAAGCUACAUCUCCAUUACAAGUUGGAACUGGAAUUCUCGGGUGCCAA | 0.746
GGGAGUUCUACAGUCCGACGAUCCCAGACAGAUUGAGAGAGAGUCACUUAAGCUGAGAGAGACUUAAGGGUGAGACUGGCGUGCAGGCGUGUGACGGUGUGUUUGGAGUAUUGCCAUUCCCAUCGCUGUUAGCUGGAAUUCUCGGGUGCCAA | 0.712
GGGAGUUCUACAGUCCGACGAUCGGCAUGAUGGUUGCUACAGUGCUCUUUCUCCCAUGAAGUCUUUGCUUUUAUAUCAGUGCCUUAUCUGUUAAGCUCCUGGAGGAAAGCCCCCUAUUCUAGAUCUUUAUGUGUGGAAUUCUCGGGUGCCAA | 0.863
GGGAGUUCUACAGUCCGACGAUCCGCCCGGCUCUGUUCAUCCUUUUAAAGGUAGAUCUUUUAUAACAUCCUUUGCCACCUUGAGAUGAUUUAUAGGUAAUAUAAUCUACAUUUGAGUUUAUUCAGACUUAAUUUGGAAUUCUCGGGUGCCAA | 0.346
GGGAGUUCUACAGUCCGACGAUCUAAAUUGGGUGUUAGCUUGAGGUGUUUUGGGGGAGUUUGUUGUAAUGGUUUUGCUGUAAACUGUGUUUGGAACUCUGCUGAAGUGUUGCUGAAAAGCAUGGUGCUGGUAAUGGAAUUCUCGGGUGCCAA | 1.85

Series 2 — method: RNA Bind-n-Seq; molecule type: RNA; sample: in vitro; tested at: not given; relative to: input RNA pool; direction: higher = stronger binding
Target: RING finger protein unkempt homolog, zinc fingers 1-6, GST-SBP tag (UNK, Homo sapiens, UniProt Q9C0B0, residues 30-357)
Chain of UniProt Q9C0B0 (30-357, looked up): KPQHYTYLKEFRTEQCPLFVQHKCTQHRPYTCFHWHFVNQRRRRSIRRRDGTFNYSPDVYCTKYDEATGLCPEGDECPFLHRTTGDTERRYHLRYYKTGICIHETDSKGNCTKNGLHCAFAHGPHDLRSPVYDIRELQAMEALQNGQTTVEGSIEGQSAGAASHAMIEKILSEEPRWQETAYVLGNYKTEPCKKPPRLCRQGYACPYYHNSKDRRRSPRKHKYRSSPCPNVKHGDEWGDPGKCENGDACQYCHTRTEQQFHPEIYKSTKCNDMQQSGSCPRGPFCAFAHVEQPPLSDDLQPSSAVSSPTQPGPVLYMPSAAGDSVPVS
Notes: RNA with constant flanks, human and mouse sites, ends assumed
Sequence | bound/input enrichment
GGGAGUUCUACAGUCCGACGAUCGUGUGGACAGCUGACAAAUUUAAUCCUUUGUAAUACUUUCUUUGUGACAUUUCUCUUCCCCUUAGAAACAUUGCACAUUUUAACUCUAGGCAUGGCCUCUUCUGGUGUUGACUGGACUUGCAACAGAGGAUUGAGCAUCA | 2.24 ratio
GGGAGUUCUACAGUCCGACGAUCGGGAUUUUUAUGUUAACUUUUUUCAUGGCAUUCCUCUUCAACUGGAUUGGGUUUUUCUUGUCUUUUUGCCUGACCACCUCAGCUGCGGGAAGGUAUGGGGCCAUCUCAGGAUUUGGUCUUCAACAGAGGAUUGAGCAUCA | 0.15 ratio
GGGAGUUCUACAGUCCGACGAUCGAAUCCUACUCAGGCGGAUUUUGCAACACCAAGCUCACAGCAGCAGCAUCUUAGUCACAGUAGGGUAGUUUUGGGGCUCUGUGGCCAGGGUUUUAUUCACAUGCAGGUUUGGAAAAUGUACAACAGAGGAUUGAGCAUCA | 1.5 ratio
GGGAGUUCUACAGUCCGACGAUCUCACCAUUUGAUCAAAUGAAGACUGCUUCCAAUAUAGGUGGAUUUAAUGCAGCAAUUAAAAACAGUCCGCCUGCCAUGUCUCAGUACAUCACUGUGGGCUCCAGUCCGUUCACUGGCUUCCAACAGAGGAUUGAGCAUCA | 0.128 ratio
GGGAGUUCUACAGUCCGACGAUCGCUUCUGUGAGACUUGAUAAUAGCUCCUCUGGUGCAAGUGUGGUAGCUAUUGACAACAAAAUCGAGCAAGCUAUGGAUCUAGUGAAAAGCCAUUUGAUGUAUGCGGUCAGAGAAGAAGUGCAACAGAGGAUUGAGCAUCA | 0.327 ratio
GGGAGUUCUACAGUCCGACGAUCAUUGUCAAAACUUUAUAUCACCUAAAGUCAGAAUUUCAAGCAAUAAUACCUGCUGUUAAUUCCCACAUUCAGUCAGACUUGCUCCGGACCGUUAUUUUAGAAAUUCCUGAACUCCUCAGUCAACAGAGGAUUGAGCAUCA | 0.678 ratio
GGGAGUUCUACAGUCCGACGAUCCCCGUUGUAUACAAAUACCUAACAGAGAAGGCAGUGAAAUGGUCACAGCAGGUAGAGCGUCACAGAGAACAUCUUAUUAACUACAUUAUAUUUUUGAGGAUCACACCGUUUCUUCCUAAUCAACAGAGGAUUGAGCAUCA | 1.53 ratio
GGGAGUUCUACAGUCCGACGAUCUACCAGAGGAUGUACUAUGUGUUCAUAUCCAUGCUGUCCAGUGGGCCUGCCUGGCUGGGUAUCAUACUGCUUGUCACGGUCGGCCUCCUCCCUGACGUCCUCAAGAAGGUCCUGUGUAGGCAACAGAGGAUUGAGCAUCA | 0.123 ratio
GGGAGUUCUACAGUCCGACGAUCGUUACUAUUUCUACAUGUUGUCCAUGAUGUGACUUUCGUAAACCUUCAAAAUUAUUUGGGCAUAGUGCUCUAUGUUUAAUAAAGGUUUUUAUAGAUGUUUUAUUCCAUAUGUCUUCACAACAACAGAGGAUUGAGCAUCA | 0.2 ratio
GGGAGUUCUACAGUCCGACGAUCUAGCAUGGAUUCUUUUUCCAUUUAUUGAAUGUGAGGGAUUUCGAUUGUUUCCAGUUCUUUUAGUUCAGUUUGUAUUGAAUACAUAUAACAAUGUGGUUUCUUACUGUUGGUGAUGGGUCACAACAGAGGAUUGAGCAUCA | 1.37 ratio
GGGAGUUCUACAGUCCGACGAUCACAAAAAACAAACGACCAUUUCUCUAAGCCAAGUUUCUUUUAGAGACAUUUUAACUUAUUUAGCUGAACUCUAGAUUUUUUGGUAAACUAUCAAUCUGUAUAUGUUGUAAUUAAGUGUCUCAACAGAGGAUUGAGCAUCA | 1.57 ratio

Series 3 — target: CCNB1, cyclin fold, Cln2 fusion (human); method: yeast growth competition, sequencing; sample: yeast; notes: strong parent motif; relative to: not given; direction: higher = stronger binding
Starting sequence: E2F1 docking peptide (human); PPVKRRLDFETDH
Variant | normalised enrichment score
K4Y | 3.86
E10F | 4.29
L7G | -0.266
L7C | 0.616
D8F | 5.28
R6P | 0.554
F9S | 0.071
T11A | 4.97
F9Y | 3
P2Y | 3.95
R6M | 3.91
V3M | 1.76
L7D | -0.176
L7N | 0.0962
R5F | 0.881
F9D | -0.261
T11G | 5.17
L7F | 0.286

Series 4 — method: DHFR PCA, deep sequencing; sample: yeast; with: (+)-ABA 200 µM; relative to: wild-type fitted maximum; direction: higher = stronger binding
Target: ABI1, truncated, D143A, DHFR fusion (Arabidopsis thaliana)
Notes: methotrexate growth selection, single substitutions
Starting sequence: PYL1, truncated, DHFR fusion (Arabidopsis thaliana); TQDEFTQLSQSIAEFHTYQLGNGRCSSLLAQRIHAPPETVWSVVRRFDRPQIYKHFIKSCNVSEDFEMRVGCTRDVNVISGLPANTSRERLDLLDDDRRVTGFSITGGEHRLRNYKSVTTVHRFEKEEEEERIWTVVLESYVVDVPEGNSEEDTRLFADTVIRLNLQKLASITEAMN; partner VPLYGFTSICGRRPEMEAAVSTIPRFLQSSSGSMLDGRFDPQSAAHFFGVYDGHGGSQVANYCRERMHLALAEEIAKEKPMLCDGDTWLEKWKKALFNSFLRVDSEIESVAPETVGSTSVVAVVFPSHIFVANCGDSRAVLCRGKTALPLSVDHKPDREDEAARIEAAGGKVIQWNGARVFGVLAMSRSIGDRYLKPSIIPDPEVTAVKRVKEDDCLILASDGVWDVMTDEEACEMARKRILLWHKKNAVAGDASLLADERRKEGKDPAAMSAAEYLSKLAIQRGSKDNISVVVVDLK
Variant | relative binding score
D159N | 89.8%
L112Q | -3.9%
L28F | 90.4%
S26Y | 91.2%
R69H | 100%
T101A | 87.9%
R111M | 79.4%
T6I | 98.2%
H34E | 99.7%
T86W | 99.3%
H34F | 90.9%
E64S | 98.9%
V161I | 105%
D92C | 69.8%
D92P | -8.77%
E64Y | 96.5%
V100N | 10.3%

Some of these lines once more (series 1):
Sequence | RBNS enrichment (R)
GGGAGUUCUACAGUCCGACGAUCUAUAAUUGGGUAGUUUUGUUAAUAUUUUUUUAUCUUGUCCUUGAUAUUCCAAAAGUUACAGGAUAGAUGUAAAUCAAUAAAGUCAUUUGGCUGUGUUUUAGACAGCUCCAUGGAAUUCUCGGGUGCCAA | 0.56
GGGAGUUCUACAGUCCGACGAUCGCAUCUUGGUUCCUUUACACAGCUUGAAGGGGCAGCCUGCACAGACUGAAAUAUCUUGACAGUUGAGAUGUGGUCAGGUGAAAAGCUACAUCUCCAUUACAAGUUGGAACUGGAAUUCUCGGGUGCCAA | 0.746
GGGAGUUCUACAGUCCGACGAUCCCAGACAGAUUGAGAGAGAGUCACUUAAGCUGAGAGAGACUUAAGGGUGAGACUGGCGUGCAGGCGUGUGACGGUGUGUUUGGAGUAUUGCCAUUCCCAUCGCUGUUAGCUGGAAUUCUCGGGUGCCAA | 0.712
